Assay results collected from several papers.
Protocols differ between the studies behind these lines. ± gives the spread as reported.

SMILES | tested on | test | system | conditions | how to read | endpoint | value
[O-][S+]1CCc2nc(N3CCC(c4ncc(Cl)cn4)CC3)nc(NC3(CO)CCC3)c21 (centres unmarked) |  | phase I trial | healthy male volunteers, blood | oral, 12 mg twice daily, after last treatment |  | creatine kinase | 746 U/L
COc1ccc(C[C@@H]2NC(=O)[C@H]([C@@H](C)O)NC(=O)[C@@H]3[C@@H]4CCN3C(=O)[C@@H]3Cc5cn(c6ccc(F)cc56)CCCCCCN(Cc5ccc(cc5)CCNC(=O)[C@]5(C)CCCN5C2=O)C(=O)CCC(=O)N[C@@H](C)C(=O)N[C@H](CNC(=O)CCCCC[N+](C)(C)C)C(=O)N[C@@H](Cc2cccc(c2)CNC(=O)CO4)C(=O)N3)cc1 |  |  | human, plasma | oral, 40 mg, high-fat breakfast 30 min before, with: sodium caprate 720 mg |  | t1/2 | 58.9 h
Clc1ccc(-c2ccccc2)cc1 |  |  | female Sprague-Dawley rats, serum | inhalation, 23 µg/rat, 0 h after exposure |  | sodium | 111 ± 22 mmol/L
N[C@@H]1c2ccccc2OC12CCN(c1cnc3c(N4CCCc5ncccc54)n[nH]c3n1)CC2 |  |  | advanced metastatic solid tumour patients | oral, 40 mg once daily |  | TEAE leading to interruption | 50%
COc1cc2c(Oc3ccc4[nH]c(C)cc4c3F)ccnc2cc1OCC1(N)CC1 |  |  | paediatric recurrent refractory sarcoma | 12 mg |  | grade 1 or 2 intestinal obstruction | 0%
C[C@@H]1OC(=O)NN=C1c1ccc(-c2ccc(F)cc2)c(C(F)(F)F)c1 |  | phase I trial, item: Presyncope worst grade 2 | human patients | 10 mg loading then 0.5 mg daily |  | patients with adverse event | 100%
CCCN(CCC)CCNC(=O)c1cc(-c2ccc(Br)s2)nc2ccccc12 | Vero-E6 | CellTiter-Glo ATP |  | concentration not given, 72 h, retest 8-point duplicates | reference: DMSO 0%, hyamine -100%, more negative, more toxic | cytotoxicity efficacy | -17.7%
CC(=O)c1c([O-])cc(C)oc1=O.[Na+] |  |  | Wistar rat, male, serum | oral, 200 mg/kg, no CYP inhibitor |  | AUC(0-inf) | 3460 ± 352 µg·h/mL
O=S(=O)(Nc1ccccc1)c1ccc(NC(=S)Nc2ccccc2)cc1 |  | item: CREA | female mouse, blood | oral, 80 mg/kg daily, 14 days |  | blood chemistry level | 0.18 mg/dL
Cc1ccc(N=Nc2ccc3[nH]cc(CCN(C)C)c3c2)cc1 |  | light irradiation | solution | with: light 530 nm |  | trans isomer at photostationary state | 87%
COc1ncccc1-c1cnn2ccc(N3CCN(C(=O)OC(C)C)CC3)nc12 |  |  | mouse, SNL model, plasma | oral, 10 mg/kg, 120 min |  | free drug concentration | 72 nM
CO[C@H]1C[C@@H]2CC[C@@H](C)[C@@](O)(O2)C(=O)C(=O)N2CCCC[C@H]2C(=O)O[C@H]([C@H](C)C[C@@H]2CC[C@@H](OC(=O)NCCOCCOCCOCCOCCOCCOCCOCCOCCC(=O)N3CCc4cc(Cn5nc(-c6ccc7oc(N)nc7c6)c6c(N)ncnc65)ccc4C3)[C@H](OC)C2)C[C@@H](O)[C@H](C)/C=C(\C)[C@@H](O)[C@@H](OC)C(=O)[C@H](C)C[C@H](C)/C=C/C=C/C=C/1C |  | phase 1 dose escalation, item: pneumonia | advanced solid tumour patients | intravenous, 16 mg weekly, grade ≥3 |  | dose-reducing adverse events | 0%
C[C@@H]1NC(=O)[C@H](CCCCNC(=O)CO/N=C/C(=O)NCCCC[C@@H]2NC(=O)[C@@H](Cc3ccccc3)NC(=O)[C@H](CC(=O)O)NC(=O)CNC(=O)[C@H](CCCNC(=N)N)NC2=O)NC(=O)CNC(=O)[C@@H]2CCCN2C(=O)[C@H](CCCCNC(=O)CO/N=C/C(=O)NCCCC[C@@H]2NC(=O)[C@@H](Cc3ccccc3)NC(=O)[C@H](CC(=O)O)NC(=O)CNC(=O)[C@H](CCCNC(=N)N)NC2=O)NC(=O)[C@H](CCCCNC(=O)CN2CCCNCCNCCCNCC2)NC(=O)[C@H](CCCCNC(=O)CO/N=C/C(=O)NCCCC[C@@H]2NC(=O)[C@@H](Cc3ccccc3)NC(=O)[C@H](CC(=O)O)NC(=O)CNC(=O)[C@H](CCCNC(=N)N)NC2=O)NC(=O)CNC(=O)[C@@H]2CCCN2C(=O)[C@H](CCCCNC(=O)CO/N=C/C(=O)NCCCC[C@@H]2NC(=O)[C@@H](Cc3ccccc3)NC(=O)[C@H](CC(=O)O)NC(=O)CNC(=O)[C@H](CCCNC(=N)N)NC2=O)NC1=O [copper-64 labelled] |  |  | normal mice, stomach | intravenous, 0.74 MBq, 3 h post-injection |  | tissue uptake | 2.79 ± 0.17 %ID/g
O=C(c1ccc(F)c(F)c1Nc1ccc(I)cc1F)N1CC(O)([C@@H]2CCCCN2)C1 |  |  | human patients | oral, dose not given, dose escalation, suspension |  | treatment-related adverse events | 89%
COC[C@@H](CC(C)C)NC(=O)c1ccc(C)c(C)c1 |  |  | bone marrow polychromatic erythrocytes, mouse Hsd:ICR (CD-1), male | oral, 624 mg/kg, 24 h |  | micronucleated PCE per 1000 PCE | 0.4
C/C(=N\C#N)N(C)Cc1ccc(Cl)nc1 |  |  | soil | 0.12 nominal, 28 days, Folsomia candida soil test |  | recovery | 17%
O=C(Oc1ccc(F)cc1)[c-]1cccc1.[Fe+2].c1cc[cH-]c1 |  | cyclic voltammetry | methanol/DMEM 1:1 with TBAPF6 | concentration not given, Pt disk electrode, Ag/AgCl reference, with: scan rate 100 mV/s |  | reduction potential | 488 mV
C[C@]1(CO)Cc2ncn(-c3ccc(C#N)c(Cl)c3)c2C(=O)O1 |  |  | human, plasma | 10 mg once daily, fasted |  | half-life at steady state | 5.9 h
CCN1CCN(c2cc(C)c3cc(NC(=O)c4cccc(Cl)c4)ccc3n2)CC1 | Vero-E6 | CellTiter-Glo ATP |  | concentration not given, 72 h, first round 5-point | reference: DMSO 0%, hyamine -100%, more negative, more toxic | cytotoxicity efficacy | 0%
O=C(O)C(O)(c1cccs1)c1cccs1 |  |  | human, plasma | oral, 2 mg once daily, 5 days, median | reference: metabolite over parent | metabolite over parent AUC(0-24) ratio | 0.109
CCc1ccc(CC/C=C/c2ccc3c(c2)C(=O)CC3)cc1 |  |  | Sprague-Dawley rat, male | oral, 120 mg/kg/day, 14 days |  | Hemoglobin | 145 g/L
CC(C)=CC1C(C(=O)OC(C#N)c2cccc(Oc3ccccc3)c2)C1(C)C (centres unmarked) |  | item: CYP2B6 | human, age 1 year |  |  | enzyme contribution to clearance | 0.88%
CN1CC[C@@H](c2c(O)cc(O)c3c(=O)cc(-c4ccc(C(F)(F)F)cc4Cl)oc23)[C@@H]1CO |  | item: Chills | B-cell malignancies | oral, 200 mg, intermittent dosing |  | patients with adverse event | 0%
CC(C)(O)c1cc(Nc2cc(Oc3cn(C4CC4)nc3C3CCOCC3)ccn2)ccn1 |  | item: Thrombocytopenia | Japanese patients with advanced cancer | oral, dose not given, any grade |  | treatment-emergent adverse events | 0%
CCCSc1ccc2nc(NC(=O)OC)[nH]c2c1 |  |  | mouse, blood | oral, 50 mg/kg, tolerability, mean |  | basophils | 0.42%
CC(=O)c1c(C)c2cnc(Nc3ccc(C4CCN(CCS(C)(=O)=O)CC4)cn3)nc2n(C2CCCC2)c1=O |  |  | HR+/HER2- advanced breast cancer patients | oral, dose not given, grade 3/4,, sample A patients |  | patients with anaemia | 4.9%
CC(C)C[C@H](NC(=O)[C@H](CCCCN)NC(=O)OCC1c2ccccc2-c2ccccc21)C(=O)N[C@H](C(=O)N[C@@H](Cc1ccccc1)C(=O)N[C@@H](Cc1ccccc1)C(=O)N[C@@H](CCCCN)C(=O)NCC(=O)N[C@@H](Cc1ccccc1)C(=O)N[C@@H](C)C(=O)N[C@@H](Cc1c[nH]c2ccccc12)C(=O)N[C@@H](CC(N)=O)C(=O)N[C@H](C(=O)N[C@H]1CSSC[C@@H](C(=O)N[C@@H](Cc2c[nH]cn2)C(=O)N[C@@H](CCCNC(=N)N)C(=O)N[C@@H](CCCNC(=N)N)C(=O)N[C@@H](C)C(=O)N[C@@H](CC(N)=O)C(N)=O)NC(=O)[C@H](C(C)C)NC(=O)[C@H](CCCNC(=N)N)NC(=O)[C@H](C(C)C)NC(=O)CNC(=O)[C@H](CC(N)=O)NC(=O)[C@H](CCCNC(=N)N)NC(=O)[C@H](Cc2ccc(O)cc2)NC(=O)[C@H](C(C)C)NC1=O)C(C)C)C(C)C |  |  | ICR mouse, blood | intramammary, 5 mg/kg, day 5, 3 d dosing |  | basophils | 1.42 ± 0.07%
Cn1ncc(-c2nc(N[C@H]3CC[C@H](N)CC3)ncc2Cl)c1CC1CC1 |  | phase I dose escalation | human patients | dose not given, any-grade TEAE | reference: patients | alanine aminotransferase increase incidence | 7%
CCN1[C@@H](C(=O)NC23CCC(C(=O)O)(CC2)CC3)[C@H](c2cccc(Cl)c2F)[C@]2(C(=O)Nc3cc(Cl)ccc32)C12CCCCC2 |  |  | patients with advanced solid tumours | oral, 100 mg |  | Ageusia incidence | 0%

For quick reference, copied from above:
SMILES | tested on | test | system | conditions | how to read | endpoint | value
C[C@@H]1OC(=O)NN=C1c1ccc(-c2ccc(F)cc2)c(C(F)(F)F)c1 |  | phase I trial, item: Presyncope worst grade 2 | human patients | 10 mg loading then 0.5 mg daily |  | patients with adverse event | 100%
Cc1ccc(N=Nc2ccc3[nH]cc(CCN(C)C)c3c2)cc1 |  | light irradiation | solution | with: light 530 nm |  | trans isomer at photostationary state | 87%
CCN1CCN(c2cc(C)c3cc(NC(=O)c4cccc(Cl)c4)ccc3n2)CC1 | Vero-E6 | CellTiter-Glo ATP |  | concentration not given, 72 h, first round 5-point | reference: DMSO 0%, hyamine -100%, more negative, more toxic | cytotoxicity efficacy | 0%
